Measured values collected from several papers.
Protocols differ between the studies behind these lines. ± marks the error that the study gave.
Target: Voltage-gated inwardly rectifying potassium channel KCNH2 (KCNH2, Homo sapiens, UniProt Q12809)
Sequence of UniProt Q12809 (whole entry, looked up): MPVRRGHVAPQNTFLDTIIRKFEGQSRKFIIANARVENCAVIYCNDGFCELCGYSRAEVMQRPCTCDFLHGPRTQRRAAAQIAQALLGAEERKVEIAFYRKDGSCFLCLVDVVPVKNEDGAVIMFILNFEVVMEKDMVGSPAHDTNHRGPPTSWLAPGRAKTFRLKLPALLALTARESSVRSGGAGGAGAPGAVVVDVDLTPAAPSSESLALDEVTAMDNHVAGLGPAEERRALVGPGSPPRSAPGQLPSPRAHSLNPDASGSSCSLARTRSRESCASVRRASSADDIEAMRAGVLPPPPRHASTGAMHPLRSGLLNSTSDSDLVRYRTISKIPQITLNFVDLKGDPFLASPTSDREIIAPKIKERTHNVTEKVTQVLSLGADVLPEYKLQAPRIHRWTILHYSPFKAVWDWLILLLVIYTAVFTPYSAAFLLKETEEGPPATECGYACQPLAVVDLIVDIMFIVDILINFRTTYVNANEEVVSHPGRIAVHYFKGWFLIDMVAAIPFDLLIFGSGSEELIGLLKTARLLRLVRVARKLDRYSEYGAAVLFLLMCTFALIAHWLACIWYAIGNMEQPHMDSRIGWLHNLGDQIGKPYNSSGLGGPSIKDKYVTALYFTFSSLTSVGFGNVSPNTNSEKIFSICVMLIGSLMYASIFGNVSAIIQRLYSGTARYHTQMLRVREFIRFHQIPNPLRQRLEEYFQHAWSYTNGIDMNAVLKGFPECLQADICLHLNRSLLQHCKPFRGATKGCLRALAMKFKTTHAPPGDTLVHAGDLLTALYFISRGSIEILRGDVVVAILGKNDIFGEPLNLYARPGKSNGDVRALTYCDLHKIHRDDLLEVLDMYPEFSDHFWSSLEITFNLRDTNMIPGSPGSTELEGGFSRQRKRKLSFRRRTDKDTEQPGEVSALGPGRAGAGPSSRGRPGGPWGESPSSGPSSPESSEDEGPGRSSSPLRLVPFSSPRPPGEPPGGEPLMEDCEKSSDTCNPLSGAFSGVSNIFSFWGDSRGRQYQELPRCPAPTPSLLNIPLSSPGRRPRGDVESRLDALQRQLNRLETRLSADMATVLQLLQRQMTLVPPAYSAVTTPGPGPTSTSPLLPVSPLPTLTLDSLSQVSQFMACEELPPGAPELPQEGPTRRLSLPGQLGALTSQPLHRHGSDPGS

Cc1cc(/C=C/C#N)cc(C)c1Oc1nc(NC2CCN(Cc3ccc(S(C)(=O)=O)cc3)CC2)nc2ncccc12
inhibition (hERG current, manual patch clamp; CHO stably expressing hERG; 3 µM): 70.8%

COc1ncc2nc(C)n(Cc3ncc(S(N)(=O)=O)cc3F)c2c1-c1ccccc1
inhibition (antagonist, cell-based; 10 µM): 2.73%

CC1(F)CN(C(=O)Cn2c(=O)c(C(=O)NCc3ccc(Cl)cc3)cc3nc(N4CCN(CCN)C4=O)cnc32)C1
inhibition (ion current, inhibitor; 40 µM): 17.3%

CN1CCN(C(=S)N/N=C/c2ccccc2O)CC1
inhibition (10 µM): 14.1 ± 0.92%

COC(=O)C1=CNC=C(C(=O)OC)C1c1ccc(F)c(C(F)(F)F)c1
IC50 (ion current, inhibitor, patch clamp; HEK293; pH 7.2): > 10 µM

O=C(O)c1ccc(/C=C2\SC(=S)N(Cc3cccc(C(F)(F)F)c3)C2=O)cc1
inhibition (ion current, inhibitor, patch clamp; CHO; 1 µM): -1.77%

CC(=O)N(C)CCN1CCN(c2cnc3c(cc(C(=O)NCc4ccc(Cl)cc4)c(=O)n3CC(=O)N3CC(C)(F)C3)n2)C1=O
Hill slope (ion current, inhibitor): 0.98

C[N+](C)(CF)CCO
IC50 (ion current, inhibitor, patch clamp; HEK293; pH 7.35): > 30 µM

CN1CCCN(c2cnc3c(cc(C(=O)NCc4ccc(Cl)cc4)c(=O)n3CC(=O)N3CC(C)(F)C3)n2)C1=O
Hill slope (ion current, inhibitor): 1.03

COCC(=O)N1CCc2cc(-c3csc(NC(=O)c4cc(OC)cc(OC)c4)n3)ccc21
inhibition (10 µM, 60 (unit not given), pH 7.4): -4%

c1ccc(OC[C@H]2CN(CCN3CCc4ccccc43)CCO2)nc1
Hill slope (potassium current inhibition, inhibitor, PatchXpress electrophysiology): 1

COc1ccc(C#CC2=C[C@H]3C[C@@]4(OC(=O)C=C24)[C@H]2CC[C@H](C(OC)OC)N32)cc1
inhibition (ligand displacement, radioligand; 10 µM): 28%

O=C1NC2(CC2)COc2ncc(F)cc2[C@H]2COCCN2c2ccn3ncc1c3n2
inhibition (potassium current, whole-cell patch clamp; CHO cells expressing hERG; 0.49 µM): 3.81 ± 1.44%

A few entries again:
COCC(=O)N1CCc2cc(-c3csc(NC(=O)c4cc(OC)cc(OC)c4)n3)ccc21
inhibition (10 µM, 60 (unit not given), pH 7.4): -4%
